Measured values collected from several papers.
Every numbered part comes from another study and shows a few of its results, in no order.

Block 1
Target: Interferon regulatory factor 3, full length, phosphomimetic (IRF3, Homo sapiens, UniProt Q14653, residues 1-427, S386D/S396D/S398D/S402D/T404D/S405D)
Method: protein-binding microarray
Form: double-stranded DNA, one strand shown
Medium: in vitro
Tested at: 2540 nM top
Notes: 60-bp whole probe
With: salmon DNA 0.4 mg/ml
Baseline: random background probes
Reading: higher = stronger binding
All sequences stand within: GCCTAGCAC … GTCTTGATTCGCTTGACGCTGCTG
Construct (chain): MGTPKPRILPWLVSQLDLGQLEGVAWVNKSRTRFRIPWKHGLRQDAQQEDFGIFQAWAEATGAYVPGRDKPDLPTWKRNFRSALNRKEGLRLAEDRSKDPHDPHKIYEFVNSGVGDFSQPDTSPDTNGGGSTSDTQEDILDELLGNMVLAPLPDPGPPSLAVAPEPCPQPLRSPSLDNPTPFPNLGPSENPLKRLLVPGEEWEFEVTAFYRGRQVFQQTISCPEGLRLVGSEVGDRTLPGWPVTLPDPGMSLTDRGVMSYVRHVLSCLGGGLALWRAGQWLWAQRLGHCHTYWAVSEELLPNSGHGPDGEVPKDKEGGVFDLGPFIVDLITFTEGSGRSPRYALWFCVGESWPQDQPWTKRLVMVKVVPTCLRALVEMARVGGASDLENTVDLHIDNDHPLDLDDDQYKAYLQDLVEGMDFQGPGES
Strand | fitted relative affinity
TCAGAACTGGGGTTTCGATTAGTGCTA | 1.54 z-score
TTAGGTTTCCTTGTCCTTTAGTGCTAG | 5.11 z-score
TTAGTTCTCAGTCTCGATTAGTGCTAG | 1.43 z-score
CCCACCTCTCACGGGCTTGTGTGCTAG | 0.551 z-score
TTAGATATCGGTTTCGGTTAGTGCTAG | 6.37 z-score
ACATTTTTTTCATTATTGTTGTGCTAG | 1.37 z-score

Block 2
Target: Prothrombin, mature alpha-thrombin (F2, Homo sapiens, UniProt P00734)
Method: aptamer microarray, sandwich
Form: DNA with 2'F-ANA
Medium: in vitro
Tested at: 200 nM
Notes: whole 15-mer aptamer, many near background
With: Cy3 exosite-II aptamer, 400 nM
Reading: higher = stronger binding
Strand: GGTTGGTGTGGTTGG
Modification | mean fluorescence intensity [a.u.]
2'F-ANA at 3 4 5 8 11 15 | 88.9
2'F-ANA at 9 10 12 14 15 | 113
2'F-ANA at 1 3 5 6 9 10 14 | 45.9
2'F-ANA at 1 6 8 13 14 | 87.5
2'F-ANA at 1 4 5 6 7 8 9 10 11 12 15 | 57
2'F-ANA at 1 2 3 4 5 8 11 12 13 15 | 85.8

Block 3
Target: Ras GTPase-activating protein-binding protein 1, RRM domain (G3BP1, Homo sapiens, UniProt Q13283)
UniProt Q13283, sequence (whole entry, looked up): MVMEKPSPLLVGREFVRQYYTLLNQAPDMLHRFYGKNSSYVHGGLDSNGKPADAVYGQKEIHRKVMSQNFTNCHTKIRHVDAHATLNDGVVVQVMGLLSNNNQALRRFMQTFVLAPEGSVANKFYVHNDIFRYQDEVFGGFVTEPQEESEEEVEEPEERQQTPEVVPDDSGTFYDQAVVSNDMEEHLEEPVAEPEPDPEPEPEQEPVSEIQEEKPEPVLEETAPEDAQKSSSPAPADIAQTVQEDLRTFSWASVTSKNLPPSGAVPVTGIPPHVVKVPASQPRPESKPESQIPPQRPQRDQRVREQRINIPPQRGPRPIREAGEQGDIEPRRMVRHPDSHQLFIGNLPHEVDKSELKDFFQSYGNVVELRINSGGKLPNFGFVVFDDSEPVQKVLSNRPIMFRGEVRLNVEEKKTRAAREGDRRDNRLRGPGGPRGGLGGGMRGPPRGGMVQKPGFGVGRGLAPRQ
Method: RNA Bind-n-Seq
Form: RNA
Medium: in vitro
Tested at: 1 µM
Notes: whole 134-nt RNA, ends assumed
With: 150 mM KCl
Baseline: input library
Reading: higher = stronger binding
Strand | log2 enrichment
GGGAGUUCUACAGUCCGACGAUCCUCAAGUCCUGUGCUACACAUCGUAUGUACCGAAUCGGGAAGGGGAAGGAAGGGAAAGUAUUAUGUUACGCCGUUCGGAUCUGCACUUCCUGGAAUUCUCGGGUGUCAAGG | -0.153
GGGAGUUCUACAGUCCGACGAUCAGUCCUGUGCUACACAUCGUAUGUACCGAAUCGGGAAAGGGUUUUUUUGGGAAAGGGAAAGUAUUAUGUUACGCCGUUCGGAUCUGCACUUGGAAUUCUCGGGUGUCAAGG | 0.389
GGGAGUUCUACAGUCCGACGAUCACCAUGCAGGUGGGCAUCUUUGGGAUGUGGGGCAAGGGGGGGAUAGGGAGGGGGGUAACACUUUGGGAACAGGUGGUCCCAGGUCGUUUCUGGAAUUCUCGGGUGUCAAGG | -0.499
GGGAGUUCUACAGUCCGACGAUCUGGGAGGUGGAUUUUGUUUAUUUUUUUAGGUCAUUUCCAGGGGUGGGAAUUUUUUUUUAAUAUGUGUCAUGAAUAAAGUUGUUUUUGAAAUGGAAUUCUCGGGUGUCAAGG | 2.09

Mixed results
Substance | target | assay | test system | setting | scale | measurement | result
PhoQ, residues 284 288 289 292 302 303 SNSSNI | PhoP, residues 12 14 15 18 19 QWHVF (Escherichia coli, UniProt P23836) | Sort-seq, refers to: YFP reporter | E. coli | PhoQ-PhoP variant library, with: 10 µM Mg2+ | baseline: high Mg2+ state, higher = stronger signaling | fold induction | 1.21
